{"data": "Results gathered from unrelated publications", "target": "Dual specificity tyrosine-phosphorylation-regulated kinase 1A (DYRK1A, Homo sapiens, UniProt Q13627)", "note": "Protocols differ between the studies behind these lines. “And” joins repeats or separate records; there may be more than shown."}
{"SMILES": "COc1cc(Nc2nccc(-c3cnn4nc(OC)ccc34)n2)cc(C(F)(F)F)c1", "assay": "binding, competition with immobilised ligand", "conditions": "1 µM", "endpoint": "remaining binding", "result": "68%"}
{"SMILES": "Cc1cccc(-c2ccc3nc(NC(=O)C4CCCO4)nn3c2)c1 (centres unmarked)", "assay": "enzyme activity, Dundee kinase panel", "conditions": "10 µM", "endpoint": "remaining activity", "result": "59%"}
{"SMILES": "C=CC(=O)Nc1cccc(-c2cnc3[nH]cc(C(=O)NC(C)(C)C)c3n2)c1", "assay": "enzyme activity, inhibitor", "conditions": "0.1 µM", "endpoint": "inhibition", "result": "10%"}
{"SMILES": "Nc1ncc2c(n1)-c1c([nH]c3ccc(C4=CCOCC4)cc13)CCC2", "assay": "binding, competition with immobilised ligand", "conditions": "1 µM", "endpoint": "remaining binding", "result": "17%"}
{"SMILES": "NC(=O)C[C@H]1CCc2sc3ncnc(O[C@H]4CC[C@H](N5CCOCC5)CC4)c3c21", "assay": "enzyme activity, inhibitor", "conditions": "10 µM", "endpoint": "inhibition", "result": "36%"}
{"SMILES": "Cc1cccc(-c2ccc3nc(NC(=O)C4CCOCC4)nn3c2)c1", "assay": "enzyme activity, Dundee kinase panel", "conditions": "10 µM", "endpoint": "remaining activity", "result": "36%"}
{"SMILES": "Cc1cccc(O[C@H]2CCC[C@@H](C(C)CNCc3ccncc3)C2)c1 (relative stereo)", "assay": "cell-free assay", "conditions": "10 µM", "endpoint": "inhibition", "result": "-2%"}
{"SMILES": "CN1CCN(Cc2ccc(-c3ccc(CO[C@H]4CCC[C@@H]4NC(=O)c4cc(-c5cnn(C)c5)cnc4N)cc3)cc2)CC1", "assay": "enzyme activity, inhibitor", "conditions": "0.1 µM", "endpoint": "inhibition", "result": "11%"}
{"SMILES": "C[C@H]1CN(C(=O)c2cn(-c3ccnc(N)n3)c3cc(C#CC4(O)CCCCC4)ccc23)CCN1", "assay": "enzyme activity, inhibitor, FRET", "conditions": "1 µM", "endpoint": "inhibition", "result": "4%"}
{"SMILES": "CNC1C[S+]2CC[S+]3CC[S+](C1)[Ru-4]321([N]=C=S)[n]2c3ccc(OC)cc3c3c4c(c5cc(F)c[n+]1c5c32)C(=O)NC4=O (centres unmarked)", "assay": "KinomeScan", "conditions": "0.1 µM", "how to read": "reference: untreated", "endpoint": "remaining binding", "result": "85%"}
{"SMILES": "C=CC(=O)N1CCc2ccc(-n3c(=O)ccc4cnc5ccc(-c6cnn(C)c6)cc5c43)cc21", "assay": "KINOMEscan", "conditions": "1 µM", "how to read": "reference: DMSO control", "endpoint": "remaining binding", "result": "90%"}
{"SMILES": "Cc1ccc(-c2c(/C=C(\\C#N)C(=O)NC(C)C)n(CCCO)c3ncnc(N)c23)cc1", "assay": "cell-free assay, competition with immobilised ligand", "conditions": "1 µM", "endpoint": "remaining binding", "result": "100%"}
{"SMILES": "COc1c(Cl)cccc1Nc1c(-c2ccncc2C#C[C@@]2(C)CCCN2C(=O)/C=C/CN(C)C)[nH]c2c1C(=O)NCC2", "assay": "cell-free assay, competition with immobilised ligand", "conditions": "3 µM", "endpoint": "remaining binding", "result": "75%"}
{"SMILES": "CC(C)=CC1OC(C)(C)C2C=C3C(=O)C(Cl)=CC(O)C3C3C(O)C4OC4C(=O)C132 (centres unmarked)", "assay": "cell-free assay, competition with immobilised ligand", "conditions": "10 µM", "endpoint": "remaining binding", "result": "69%"}
{"SMILES": "CCN1CCN(Cc2ccc(C(=O)Nc3ccc(C)c(NCc4cnc5[nH]ccc5c4OC)c3)cc2C(F)(F)F)CC1", "assay": "binding, competition with immobilised ligand", "conditions": "1 µM", "endpoint": "remaining binding", "result": "74%"}
{"SMILES": "COCC12C(=O)NC3C4(C(OC)CC1O)C1CC5(O)C(OC)C(O)C(OC(C)=O)(C1C5OC(=O)c1ccccc1)C3(O)C(OC)C24 (centres unmarked)", "assay": "kinase activity, inhibitor, ProQinase kinase profiling", "conditions": "25 µM", "how to read": "reference: control", "endpoint": "remaining activity", "result": "106% and 113%"}
{"SMILES": "CCn1c(=O)c(=O)n(CC)c2ccccc21", "assay": "enzyme activity, inhibitor, ADP detection", "conditions": "10 µM", "endpoint": "inhibition", "result": "92.5%"}
{"note": "Repeated from above:"}
{"SMILES": "Cc1cccc(O[C@H]2CCC[C@@H](C(C)CNCc3ccncc3)C2)c1 (relative stereo)", "assay": "cell-free assay", "conditions": "10 µM", "endpoint": "inhibition", "result": "-2%"}
{"SMILES": "C=CC(=O)N1CCc2ccc(-n3c(=O)ccc4cnc5ccc(-c6cnn(C)c6)cc5c43)cc21", "assay": "KINOMEscan", "conditions": "1 µM", "how to read": "reference: DMSO control", "endpoint": "remaining binding", "result": "90%"}
{"SMILES": "COc1cc(Nc2nccc(-c3cnn4nc(OC)ccc34)n2)cc(C(F)(F)F)c1", "assay": "binding, competition with immobilised ligand", "conditions": "1 µM", "endpoint": "remaining binding", "result": "68%"}
